Measured values collected from several papers.
Each numbered part is a random draw from the data of one study; scales do not carry over between parts. Changes are numbered by the printed parent chain.

Block 1 — technique: RNAcompete; molecule type: RNA; sample: in vitro; tested at: 20 nM; notes: 7-mer, probes averaged, single round; relative to: mean of 7-mers; direction: higher = stronger binding
Target: PABPC1L2, full length, GST fusion (mouse, UniProt A0ABA7IW68)
The 7-mer Z-score of `AUCCUAU` is reported as -0.316.
`UCGUACG` has a 7-mer Z-score of -0.24.
The 7-mer Z-score of `AAGUCUC` is reported as 0.0696.
`GCUUAAA` has a 7-mer Z-score of 0.419.
The 7-mer Z-score of `UGUUGCU` is reported as -0.452.
`CUAACGC` has a 7-mer Z-score of -0.396.
`UUCGUGU` has a 7-mer Z-score of -0.398.
With `GUUUUUG` the 7-mer Z-score was -0.349.
With `CACUUAU` the 7-mer Z-score was -0.188.
For `AGGCCGA`, the 7-mer Z-score was 0.14.
With `AAUUCCA` the 7-mer Z-score was 0.0587.
With `CAAAAGG` the 7-mer Z-score was 0.831.
`GGUUCCC` has a 7-mer Z-score of -0.26.
`GCACGUA` gave a 7-mer Z-score of -0.0573.
For `GCGGCUC`, the 7-mer Z-score was 0.00798.
The 7-mer Z-score of `CCCUAUA` is reported as -0.307.
`UUAUCCG` gave a 7-mer Z-score of -0.273.
For `UGAUAUU`, the 7-mer Z-score was -0.199.
With `AUACCCA` the 7-mer Z-score was -0.302.
`AUUUGCC` has a 7-mer Z-score of -0.364.
The 7-mer Z-score of `UAGCCAU` is reported as -0.166.

Block 2 — target: CCNF, cyclin fold, Cln2 fusion (human); technique: yeast growth competition, sequencing; sample: yeast; notes: strong parent motif; relative to: not given; direction: higher = stronger binding
Starting sequence: RBL1 docking peptide (human); GSAKRRLFGEDPP
`K4V`: “normalised enrichment score” 7.72.
`L7R`: “normalised enrichment score” -0.602.
`A3P` — result for “normalised enrichment score”: 2.94.
For `P13L`, “normalised enrichment score” read 8.32.
`R5L` — result for “normalised enrichment score”: 0.513.
`R5A L7A` — result for “normalised enrichment score”: -0.0917.
Under “normalised enrichment score”, `S2Q` is recorded as 6.5.
`P13T` — result for “normalised enrichment score”: 6.89.
For `S2Y`, “normalised enrichment score” read 7.21.
For `R6K`, “normalised enrichment score” read 7.91.
Under “normalised enrichment score”, `S2P` is recorded as 5.77.
Under “normalised enrichment score”, `D11F` is recorded as 7.86.
`P12S` — result for “normalised enrichment score”: 7.81.
For `L7I`, “normalised enrichment score” read 4.34.
`P13N` — result for “normalised enrichment score”: 7.19.
Under “normalised enrichment score”, `K4P` is recorded as 3.49.
`P12F` — result for “normalised enrichment score”: 6.91.
`G9C` — result for “normalised enrichment score”: 8.07.
Under “normalised enrichment score”, `G1D` is recorded as 6.38.

Block 3 — technique: DHFR PCA, deep sequencing; sample: yeast; added: (+)-ABA 58 µM; relative to: wild-type fitted maximum; direction: higher = stronger binding
Target: ABI1, truncated, D143A, DHFR fusion (Arabidopsis thaliana)
Notes: methotrexate growth selection, single substitutions
Starting sequence: PYL1, truncated, DHFR fusion (Arabidopsis thaliana); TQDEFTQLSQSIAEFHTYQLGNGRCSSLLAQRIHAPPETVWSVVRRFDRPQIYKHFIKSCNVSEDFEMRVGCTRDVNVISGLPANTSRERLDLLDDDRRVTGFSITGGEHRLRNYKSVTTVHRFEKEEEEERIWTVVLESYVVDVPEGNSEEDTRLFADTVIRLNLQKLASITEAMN
For `T6K`, “relative binding score” read 103%.
Under “relative binding score”, `E174F` is recorded as 46.2%.
`E89K`: “relative binding score” 9.76%.
Under “relative binding score”, `P83T` is recorded as 9.25%.
For `L82I`, “relative binding score” read 86%.
`N22R`: “relative binding score” 90.5%.
`T6S`: “relative binding score” 94.6%.
`N77A` — result for “relative binding score”: 91.8%.
`V143T` — result for “relative binding score”: 77.2%.
Under “relative binding score”, `G102H` is recorded as -7.79%.
For `T73A`, “relative binding score” read 66.5%.
`H122T` — result for “relative binding score”: 27.8%.
`H16D` — result for “relative binding score”: -17.6%.
`L82V` — result for “relative binding score”: 70.2%.
`V70Q`: “relative binding score” 66.5%.
For `D153I`, “relative binding score” read -2.54%.
`Q167G` — result for “relative binding score”: 79.5%.
Under “relative binding score”, `T106Q` is recorded as 83.6%.
`L91P` — result for “relative binding score”: -4.71%.
`Y115F` — result for “relative binding score”: 88.3%.
For `A170R`, “relative binding score” read 85.3%.
`S80E`: “relative binding score” 18.4%.
For `L156M`, “relative binding score” read 85.9%.
Under “relative binding score”, `M176I` is recorded as 85.5%.
`I52W`: “relative binding score” 66.7%.

Block 4 — target: TEF, bZIP domain (human); technique: DHFR protein complementation; sample: yeast; relative to: wild-type JUN-FOS pair; direction: higher = stronger binding
Notes: single substitutions, most at no-binding floor
Starting sequence: JUN, bZIP domain (human); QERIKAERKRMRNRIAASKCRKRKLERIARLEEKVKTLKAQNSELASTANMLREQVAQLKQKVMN; partner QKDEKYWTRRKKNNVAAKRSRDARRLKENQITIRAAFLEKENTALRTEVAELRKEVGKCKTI
`L31R` has a binding fitness of -1.46 natural log.
`L45V` gave a binding fitness of -1.49 natural log.
For `T48G`, the binding fitness was -1.49 natural log.
The binding fitness of `T48L` is reported as -1.49 natural log.
The binding fitness of `Q55E` is reported as -1.44 natural log.
With `L52Y` the binding fitness was -1.23 natural log.
The binding fitness of `A40E` is reported as -1.44 natural log.
`E44Y` has a binding fitness of -1.48 natural log.
For `A29M`, the binding fitness was -1.48 natural log.
For `Q41P`, the binding fitness was -1.52 natural log.
For `V35H`, the binding fitness was -1.46 natural log.
For `M51K`, the binding fitness was -1.48 natural log.
`L31G` has a binding fitness of -1.42 natural log.
`L31Q` gave a binding fitness of -1.51 natural log.
`L52T` gave a binding fitness of -1.48 natural log.
The binding fitness of `I28E` is reported as -1.24 natural log.
`M51G` has a binding fitness of -1.51 natural log.
For `Q55T`, the binding fitness was -1.46 natural log.
`L31V` gave a binding fitness of -1.28 natural log.
For `L45Y`, the binding fitness was -1.53 natural log.
For `A40M`, the binding fitness was -1.49 natural log.
For `K34V`, the binding fitness was -1.27 natural log.
With `Q55M` the binding fitness was -1.65 natural log.
For `V56Y`, the binding fitness was -1.44 natural log.
For `L31N`, the binding fitness was -1.55 natural log.

Repeated from above (block 3):
For `T6K`, “relative binding score” read 103%.
Under “relative binding score”, `E174F` is recorded as 46.2%.
`E89K`: “relative binding score” 9.76%.
Under “relative binding score”, `P83T` is recorded as 9.25%.
For `L82I`, “relative binding score” read 86%.
`N22R`: “relative binding score” 90.5%.
`T6S`: “relative binding score” 94.6%.
`N77A` — result for “relative binding score”: 91.8%.
`V143T` — result for “relative binding score”: 77.2%.
Under “relative binding score”, `G102H` is recorded as -7.79%.
For `T73A`, “relative binding score” read 66.5%.
`H122T` — result for “relative binding score”: 27.8%.
